Results pooled from the literature.
Several values in a cell are separate wells, animals, samples, runs or records.
IGF1R: Insulin-like growth factor 1 receptor (IGF1R, Homo sapiens, UniProt P08069)

SMILES | target | test | conditions | scale | quantity | value
C=CC(=O)Nc1cccc(-c2cnc3[nH]cc(C(=O)NC(C)(C)C)c3n2)c1 | IGF1R | kinase activity | 0.1 µM |  | inhibition | 3% and 5%
CNS(=O)(=O)Nc1nccc(Cc2c(C)c3ccc(Oc4ncccc4F)cc3oc2=O)c1F | IGF1R | cell-free assay, competition with immobilised ligand | 10 µM |  | remaining binding | 89%
Cc1[nH]nc2c1N=C(c1ccccc1Cl)c1cnc(N3CCOCC3)cc1N2 | IGF1R | enzyme activity, inhibitor | 0.5 µM |  | inhibition | 9.2%
NC(=O)[C@@H](O)C[C@H]1CCc2sc3ncnc(O[C@H]4CC[C@H](N5CCOCC5)CC4)c3c21 | IGF1R | enzyme activity, inhibitor | 10 µM |  | inhibition | 8%
Nc1ncc2c(n1)-c1c([nH]c3ccc(C4=CCOCC4)cc13)CCC2 | IGF1R | binding, competition with immobilised ligand | 1 µM |  | remaining binding | 100%
CCn1cc(C(=O)O)c(=O)c2c(N)c(F)c(NC3CCCCC3)cc21 | IGF1R | kinase activity | 0.1 µM, together with: ATP at Km |  | inhibition | 1.6%
COc1ccc(NC(=O)Nc2ccc3c(c2)C(=O)N(C(C)CO)CC(C)C(CN(C)Cc2ccc4c(c2)OCO4)O3)cc1 (centres unmarked) | Insulin-like growth factor 1 receptor, activated (IGF1R, Homo sapiens, UniProt P08069) | kinase activity | 0.03 µM, activated kinase | reference: control | remaining activity | 96%
Cc1cccc(-c2ccc3nc(NC(=O)C4CCOCC4)nn3c2)c1 | IGF1R | enzyme activity, Dundee kinase panel | 10 µM |  | remaining activity | 94%
C=CC(=O)N1CCCC(n2c(=O)c3ncccc3n(Cc3ccc(Oc4ccccc4)cc3)c2=O)C1 (centres unmarked) | IGF1R | cell-free assay, competition with immobilised ligand | 1 µM |  | remaining binding | 94%
Nc1ncc(-c2cc(-c3cnn(CC(F)(F)F)c3)ncc2F)nc1C(=O)NC1CNCC(F)C1 (centres unmarked) | IGF1R | enzyme activity | 1 µM | reference: DMSO control | remaining activity | 97.6%
COc1ccc(O)cc1-c1c[nH]c2ncc(-c3cncc(C(=O)N(C)C)c3)cc12 | IGF1R | binding, competition with immobilised ligand | 0.2 µM |  | inhibition | -1.65%
COc1cc(OC)c(F)c(/C=C/c2cnc3ccn(S(=O)(=O)c4cn(CCF)cn4)c3n2)c1F | IGF1R |  | 1000 nM |  | inhibition | 11.5%
COc1c(OCCCN2CCOCC2)ccc2c1N=C(NC(=O)c1cnc(N)nc1)N1CCN=C21 | IGF1R | kinase activity, inhibitor | 1 µM | reference: untreated control | remaining activity | 106%
Cc1nc2c(F)cc(-c3nc(Nc4ccc(CNC(=O)CCCCCCC(=O)NO)cc4)ncc3F)cc2n1C(C)C | IGF1R | enzyme activity, inhibitor | 1 µM |  | inhibition | 85%
CN1CCN(Cc2ccc(NC(=O)c3cccc(C#Cc4cnc(N)c5ncccc45)c3)cc2C(F)(F)F)CC1 | IGF1R | cell-free assay, competition with immobilised ligand | 0.5 µM |  | remaining binding | 94%
CCN1CCN(Cc2ccc(C(=O)Nc3ccc(C)c(NCc4cnc5[nH]ccc5c4OC)c3)cc2C(F)(F)F)CC1 | IGF1R | binding, competition with immobilised ligand | 1 µM |  | remaining binding | 100%
O=C(Nc1ccc(Oc2ncnc3[nH]cc(-c4ccccc4)c23)c(F)c1)c1c2n(n(-c3cc(F)ccc3F)c1=O)CCCC2 | IGF1R | enzyme activity, inhibitor | 0.5 µM |  | inhibition | 27%
O=C(Cc1ccc(OCc2ccccc2)cc1)NC1(C(=O)O)CCN(C(=O)c2ccc(-c3cccc(Cl)c3)cc2)CC1 | IGF1R | enzyme activity, inhibitor | 10 µM |  | activity vs control | 145%
CC(C)=CC1OC(C)(C)C2C=C3C(=O)C(Cl)=CC(O)C3C3C(O)C4OC4C(=O)C132 (centres unmarked) | IGF1R | cell-free assay, competition with immobilised ligand | 10 µM |  | remaining binding | 91%
O=C=[N][Ru-4]123([n]4c5ccc(O)cc5c5c6c(c7cc(F)c[n+]1c7c54)C(=O)NC6=O)[S+]1CC[S+]2CC[S+]3CC1 (centres unmarked) | IGF1R | enzyme activity | 100 nM, human enzyme, together with: 10 µM ATP | reference: untreated | remaining activity | 92%
C=CC(=O)N1Cc2nc(-c3cc(-c4cc(Cl)cnc4Cl)c(F)cc3F)n(-c3ccncn3)c2C1 | IGF1R | cell-free assay | 1 µM |  | inhibition | 10.2%
Nc1nc(Nc2ccccc2)sc1C(=O)c1ccccc1 | IGF1R | enzyme activity, inhibitor | 10 µM |  | remaining activity | 41%
Cc1ccc(-c2c(/C=C(\C#N)C(=O)NC(C)C)n(CCCO)c3ncnc(N)c23)cc1 | IGF1R | cell-free assay, competition with immobilised ligand | 1 µM |  | remaining binding | 100%
COc1cc(-n2cc3cc(F)cc(C(N)=O)c3n2)cc(Cl)c1C1CC(O)(CCO)Cc2ccccc21 (centres unmarked) | IGF1R | enzyme activity, inhibitor | 10 µM |  | inhibition | 0.82%
CNC(=O)C1CCN(c2cc(C)c(F)cc2NC(=O)c2ccc(-c3cc(O)ccc3C)c(C)c2)CC1 | IGF1R | binding, competition with immobilised ligand | 1 µM |  | remaining binding | 94%
Cc1cccc(O[C@H]2CCC[C@@H](C(C)CNCc3ccncc3)C2)c1 (relative stereo) | IGF1R | cell-free assay | 1 µM |  | inhibition | 6%
CN1CC[C@@H](COc2cnc(C#N)cc2-c2ccn3nc(NC(=O)C4CC4)cc3c2)C1 | IGF1R | enzyme activity, inhibitor | 1 µM |  | inhibition | -1%
Cc1ccc(C)c(-c2ccc3nc(NC(=O)C4CCCCC4)nn3c2)c1 | IGF1R | enzyme activity, Dundee kinase panel | 10 µM |  | remaining activity | 104%
O=c1c(-c2ccc(Cl)c(CN3CCOCC3)c2)coc2cc(O)ccc12 | IGF1R | enzyme activity, inhibitor | 1 µM |  | remaining activity | 112%

Excerpt of the above:
SMILES | target | test | conditions | scale | quantity | value
CN1CC[C@@H](COc2cnc(C#N)cc2-c2ccn3nc(NC(=O)C4CC4)cc3c2)C1 | IGF1R | enzyme activity, inhibitor | 1 µM |  | inhibition | -1%
Cc1ccc(C)c(-c2ccc3nc(NC(=O)C4CCCCC4)nn3c2)c1 | IGF1R | enzyme activity, Dundee kinase panel | 10 µM |  | remaining activity | 104%
